Measurements of several laboratories.
Every numbered part comes from another study and shows a few of its results, in no order.

Study 1 — technique: protein-binding microarray; molecule type: double-stranded DNA, one strand shown; matrix: in vitro; concentration: not given; direction: higher = stronger binding
Target: Protein C-ets-1 (ETS1, Homo sapiens, UniProt P14921, residues 1-441, K379A, full length assumed)
Chain of UniProt P14921 (whole entry, unmodified, looked up): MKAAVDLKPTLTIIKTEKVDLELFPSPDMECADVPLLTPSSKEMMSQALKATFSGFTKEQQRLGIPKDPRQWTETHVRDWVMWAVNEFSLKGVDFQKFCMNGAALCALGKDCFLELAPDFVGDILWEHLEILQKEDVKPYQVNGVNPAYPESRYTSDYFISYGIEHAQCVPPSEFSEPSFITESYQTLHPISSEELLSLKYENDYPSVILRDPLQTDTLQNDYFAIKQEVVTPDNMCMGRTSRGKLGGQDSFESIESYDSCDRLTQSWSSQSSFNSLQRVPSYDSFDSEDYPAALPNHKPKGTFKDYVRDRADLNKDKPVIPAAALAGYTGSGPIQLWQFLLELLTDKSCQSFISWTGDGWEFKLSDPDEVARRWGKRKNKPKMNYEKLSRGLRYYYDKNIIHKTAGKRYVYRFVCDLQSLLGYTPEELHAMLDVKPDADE
Notes: k-mer, scored over probes, only values ≥0.25
Oligonucleotide	E-score
CGACACGC	0.281
CCGGTACC	0.466
AAACCGGA	0.398
CCGGTAAA	0.463
CCAACCGG	0.38
CGGATAAA	0.264
CCGGCCCG	0.254
AAGATACC	0.256
ACGGACCA	0.253
TATCCGGA	0.362
AGTGTCGG	0.349
GCGGGGTA	0.288
ACACGTAA	0.285
GACCGGTA	0.426
ATAACATG	0.271
ACATACTA	0.292
GATGTAAC	0.254
CCGGCAAA	0.352
CCGACATC	0.272
GTCGGGGA	0.266
CAATCAAC	0.277
GTACCGTA	0.253
GAACCGGA	0.402
CCGGTCAC	0.322
TCGACACA	0.254

Study 2 — technique: protein binding microarray; molecule type: double-stranded DNA, one strand shown; matrix: in vitro; concentration: not given; baseline: not given; direction: higher = stronger binding
Target: Histone acetyltransferase KAT6A, both winged helices, GST fusion (KAT6A, Homo sapiens, UniProt Q92794, residues 1-181)
Notes: 8-mer, flanks averaged, mean of 2 arrays, mostly near background
Residues (chain): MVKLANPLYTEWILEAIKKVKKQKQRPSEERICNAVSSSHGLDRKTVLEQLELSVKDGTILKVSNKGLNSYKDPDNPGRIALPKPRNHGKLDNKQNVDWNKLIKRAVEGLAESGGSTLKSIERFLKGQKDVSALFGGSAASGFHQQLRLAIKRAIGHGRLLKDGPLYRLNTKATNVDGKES
Oligonucleotide	E-score
AAGCTCCC	-0.0631
CATGCACC	0.0275
CCATCCCA	-0.257
CCAAAACG	-0.0535
TAGCACAA	-0.152
GGGTCTGA	0.00081
CAACTGTC	-0.0614
ACGGACTG	0.127
GGGAATCA	0.0393
ACAAACTG	-0.208
CCTTACGA	-0.0201
ATCTAGTG	-0.134
ATACTTCG	-0.0561
ATGAGCAC	-0.121
AAGATTGA	-0.147
CAAACTTA	-0.00246
GCGATCGA	0.0795
CCACTCCC	-0.179
AAAGGTTG	-0.0756
ACCCCGAT	0.0788
CCGTCCCC	0.128
CTAGTATC	-0.214
AAGTAAGC	-0.0272

Study 3 — technique: RNA Bind-n-Seq; molecule type: RNA; matrix: in vitro; concentration: 200 nM; notes: whole 134-nt RNA, ends assumed; with: 150 mM KCl; baseline: input library; direction: higher = stronger binding
Target: Fragile X messenger ribonucleoprotein 1, C-terminal low-complexity region (Fmr1, Mus musculus, UniProt P35922)
Oligonucleotide	log2 enrichment
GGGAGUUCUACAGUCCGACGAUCCUCAAGUCCUGUGCUACACAUCGUAUGUACCGAAUCGGAAGGGGAAGGGGAAGGAAAGUAUUAUGUUACGCCGUUCGGAUCUGCACUUCCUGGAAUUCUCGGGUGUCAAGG	0.00321
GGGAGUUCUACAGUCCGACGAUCAGUCCUGUGCUACACAUCGUAUGUACCGAAUCGGUUUUUUUGGUUUGGUUUUUUUGGAAAGUAUUAUGUUACGCCGUUCGGAUCUGCACUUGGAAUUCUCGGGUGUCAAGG	-0.966
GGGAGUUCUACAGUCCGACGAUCAGUCCUGUGCUACACAUCGUAUGUACCGAAUCGGUUUUUUUGGAAAAAGGUUUUUGGAAAGUAUUAUGUUACGCCGUUCGGAUCUGCACUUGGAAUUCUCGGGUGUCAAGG	-1.42
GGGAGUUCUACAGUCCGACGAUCGCAGGAAGUAAAAACAAAUGGAAAUGCUUCGGUUAGUGGCAGGGGUGGGGGUUGCUAAGGAAAGGGUGGGAUGGGAGUGGGUAAAGAGUUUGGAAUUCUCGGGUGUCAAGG	0.0946
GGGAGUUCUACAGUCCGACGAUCUCCUCAAGUCCUGUGCUACACAUCGUAUGUACCGAAUCGGUGGUGGAAAGGAAAGUAUUAUGUUACGCCGUUCGGAUCUGCACUUCCAGCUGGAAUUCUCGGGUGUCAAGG	-0.113
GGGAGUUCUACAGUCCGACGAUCGCCGGAAGUAAAAACAAAUGGAAAUGCUUCGGAUAGUGGCAGGGGUGGGGGUUGCUAAGGAAAGGGUGGGAUGGGAGUGGGUAAAGAGUUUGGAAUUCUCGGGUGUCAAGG	0.698
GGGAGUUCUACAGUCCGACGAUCUGUGCUACACAUCGUAUGUACCGAAUCGGGGUUUUUUUGGGUUUUUUUGGGUUUUUUUGGGGAAAGUAUUAUGUUACGCCGUUCGGAUCUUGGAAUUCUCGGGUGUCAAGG	0.197
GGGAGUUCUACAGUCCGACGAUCCCUCAAGUCCUGUGCUACACAUCGUAUGUACCGAAUCGGAAGGGGAAGGAAGGAAAGUAUUAUGUUACGCCGUUCGGAUCUGCACUUCCAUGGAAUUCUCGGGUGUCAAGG	-0.349
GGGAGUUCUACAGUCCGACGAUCUUUUCUCACGAUGCACCUCCCCCUGGCACUAAGAAAAAGCACUUAUCCAUUGAGCAGCUGAAUGCUCGUCGCAGGAAAGUAUGGCUCAGCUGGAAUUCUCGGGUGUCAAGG	-0.528

Study 4 — technique: RNA Bind-n-Seq; molecule type: RNA; matrix: in vitro; concentration: 365 nM; baseline: no-protein control; direction: higher = stronger binding
Target: RNA binding protein fox-1 homolog 2, RRM domain, GST-SBP tag (RBFOX2, Homo sapiens, UniProt O43251-10, residues 100-194)
Notes: natural RNA segment, single round, ends assumed
Target sequence (chain): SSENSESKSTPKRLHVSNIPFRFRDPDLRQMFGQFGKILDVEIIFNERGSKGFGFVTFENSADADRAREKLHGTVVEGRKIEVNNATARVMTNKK
Oligonucleotide	RBNS enrichment (R)
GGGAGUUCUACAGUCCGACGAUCAUAAAUGGAAAGAAAGUUUUAUUUCCUUUUUUGUUUGAUGGGCAGUAUGCCAUAUUAUACCCAAAGUUCUUUUAAAAAAUAUUUCCAUCAACCAUUUUUAUUUAAAAUAAUGGAAUUCUCGGGUGCCAA	0.845
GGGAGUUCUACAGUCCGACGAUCUUUCAGAAGGAAUACUUGGUUCUUUCUGGGGUCUCUAAUGUUCUCAGCCAAAACCUGGCCUGGCUACCAAGAAGAGUGGGAAGACAGGAGGAGCAGACUGCUGCUGUUUUUGGAAUUCUCGGGUGCCAA	0.301
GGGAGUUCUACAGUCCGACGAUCAGUGUGUGCUCUUCCUUCCUUAAAACCUUUAGAUGUCCUGUUACACUAACACAGGUCUUCCCUUCCCUCCAACCCCAGGUUUCAGGUCUCAGAGCCAAGCCAGGGUUGGAUGGAAUUCUCGGGUGCCAA	0.352
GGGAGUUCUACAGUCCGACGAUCUAUCUGCUUCUUUUUACUUCUCCAGGUUUUGAUUUGUUUUGUUUUGUUUUAUUUGCGGGGGGAGUGGGAUACAUUUUGUUUUAAACAGAUAUGUGUAUUUGAUAGGUGGGUGGAAUUCUCGGGUGCCAA	27.5
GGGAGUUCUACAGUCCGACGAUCGUACCUGUGGAUUUUCCAAUAGUGAGGGUUAGCUCUGCCUCCAGGGCCCGCUAAGUUCUGCUGAGCAGGCCUGUCCACGCUGUUCCUUACCGGUGAGACUGGGCUUGGACUGGAAUUCUCGGGUGCCAA	0.408
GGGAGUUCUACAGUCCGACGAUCUGUCCUGUGCAGAGGUGGAGGGCAGCUGUCUACAGGCUUCCUAGAGGUCACAUGCAGGACUGGGGUGGCCACUUGGCAGAGUCCUUGGGGUUCAGACCUCCACAGGCUAGUGGAAUUCUCGGGUGCCAA	0.47
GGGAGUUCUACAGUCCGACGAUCUAAACUUACACUAAAGGAUUCAUCAAAUCAUCUUGUUCAGAUGGCUCAGGAUUGUAUUUAUUUUGCUUACCCCGUGCUCUUGGGUUCUAUAGUAUUUCUAUAAUUAUGUAUGGAAUUCUCGGGUGCCAA	0.378
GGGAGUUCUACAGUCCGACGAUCGCUGGCCAUAUUCCUCCUGUCCCCAUGCUGUGGCUCAUGCCAACCUAGCAAUAAGGAGCUCUGGAGAGCCUGCACCUGCCUCCCGCUCGCCUAUAUCUGCUGCCCAGAGGUGGAAUUCUCGGGUGCCAA	1.02
